Measured values from different studies.
Every numbered part comes from another study and shows a few of its results, in no order. Positions count from the first letter of the parent shown.

Sample 1 — technique: RNA Bind-n-Seq; molecule type: RNA; medium: in vitro; tested at: 365 nM; reference: no-protein control; direction: higher = stronger binding
Target: RNA binding protein fox-1 homolog 2, RRM domain, GST-SBP tag (RBFOX2, Homo sapiens, UniProt O43251-10, residues 100-194)
Notes: natural RNA segment, single round, ends assumed
Constant ends, left off below: GGGAGUUCUACAGUCCGACGAUC … UGGAAUUCUCGGGUGCCAA
Construct (chain): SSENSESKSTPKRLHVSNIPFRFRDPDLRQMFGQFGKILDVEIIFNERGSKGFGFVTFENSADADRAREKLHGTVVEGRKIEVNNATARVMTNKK
Strand | RBNS enrichment (R)
CGUCUUUCCGUUCGUUGGUUUUCUGUGUGUAAGGAGUAGCAUUGCUGUUGGCGCCUAACCUCGCGUGCACUGCAUUCUCAACCCCGUACCAGUGCAUCAUCAGAAGCCUU | 0.229
UCACAUUCUCUUGUCACCACCAAGAACUCCAAGUUUUUCGUUUUGUUUUGUUUUCAAAGUGCUUACAAUGCAUGUAGACAUUGUUCUUUGUGGUCUGACUCUAUGAUCGA | 0.871
CCCUUCCUUGUAGCCUUUUGACUUUCAUUGGAAAUUAGGAUGUAAAUCUGCUCAGGAGACCUGGAGGAGCAGAGGAUAAUUAGCAUCUCAGGUUAAGUGUGAGUAAUCUG | 0.475
UCAGGCAGAAGAAUCUUUCUUCUCGCCUAGGAUUUCAGCCAUGCGCGCGCUCUCUCUCUUUCUCUCUCUUUUCCUCUCUCUCCCUCUUUCUAGCCUGGGGCUUGAAUUUG | 0.533
CUUGCAUACUAUUAUGCAGCUUACCUAACUCUCAGACUAUUCUGAGUAAUGCUUGCUUGCUAAUGAAUGUAUAGGAGACCACAUUGUAAUUGUUCUUAGAUGAUGGAGUC | 0.874
UCCUGCCCCUGACCGUGACCCAGAACUUGACCAUGAUAGAAGAGAGCCUCACCUCUGAGUUCAUUCAUGACAUCGACCGAGAACUGAAGACUAUCCAAGCUGUGCUGACU | 1.26
ACUUGUCACACCUUUUGUUUCAUUCUGAGUCUUUAGUUUUAGUCAUGGGCUUUCUUCACCUGCUCUAGGUGCAAAGGCAUGUUGGGAAAGAGAUGGAUGUUGGGGAGGAA | 1.21
AUGGAACCAACAAGUUGAGUGCAUCUCUGUUGGGUGUUUUGUGUUGAGACUGGCUGAAGUGAAGAAUCUUUGACUGACCAUGUUGUGAUGUGUCGACAGACUCAAGGACA | 0.407
ACAACAAAAGCCGGCAGGCAUCUUUAAGGGCUAUGCCUAGGGAGACUACUAACAUGGAGAGAAUGCCGUGUAUACCUCACGUACUGUGUGCUUUAUAUUUGUAUAUACAU | 0.64
GAAGACUCAGGAAUGGUGUGCAUUAUAAAUGACACACAUUGCCACUUGUGUAGAUAUUUUUAAGUUCUUUGGCUAAGUCCUCUCCUAACUGCCUGUCCUCUGGUUAGGCC | 0.956
UUUAGUAAUGCUAUCAGUCCUCCAAGUGUUAGGGACAAUCUUAGAAUUCUCAUGUAAUGAGAAGCAAGAAAACUAUGUGUUACUAUUCAUUAUAUUUCAUGUUUGACCAU | 0.351
CGUCUGUCAGGAUAUUAAGCCCUGCGUCAUGUGACGGAAAGAGGCCAAGCGAUGGCCGCUCUCUCCUCUCCCCUCCUCAGAGGGGGCAGAUAGAAACUGGGACGGAUUCA | 0.265

Sample 2 — target: CCNB2, cyclin fold, Cln2 fusion (human); technique: yeast growth competition, sequencing; medium: yeast; notes: weak parent motif; reference: not given; direction: higher = stronger binding
Starting sequence: INSM1 docking peptide (human); PKAIRKLHFEDEV; partner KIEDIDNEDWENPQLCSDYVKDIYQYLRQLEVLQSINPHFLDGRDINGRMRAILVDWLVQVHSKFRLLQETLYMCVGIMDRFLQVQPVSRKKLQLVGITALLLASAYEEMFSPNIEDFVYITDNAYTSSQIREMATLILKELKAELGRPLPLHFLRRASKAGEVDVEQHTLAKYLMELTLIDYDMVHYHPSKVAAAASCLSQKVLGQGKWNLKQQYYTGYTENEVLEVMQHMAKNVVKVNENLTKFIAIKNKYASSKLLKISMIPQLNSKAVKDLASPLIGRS
Substitution | normalised enrichment score
H8L | 0.491
R5G | -0.00214
A3N | -0.0118
I4R | 1.04
E12F | 0.397
E12I | 0.437
I4M | 0.276
E10W | 0.451
F9G | -0.058
K2Y | -0.0332
R5P | -0.251
L7C | 0.641
K6D | 0.159
I4L | 0.582
A3K | 0.774
L7P | -0.0139
I4N | 0.208
D11R | 0.378
K2H | 0.261
E12P | 0.303
E12G | 0.167
E12L | 0.525
E12Q | 0.0938
A3Q | 0.0083
L7K | 0.144

Sample 3 — technique: EMSA with sequencing; molecule type: double-stranded DNA, one strand shown; medium: in vitro; tested at: 10 and 20 nM; reference: negative control set to 0; direction: higher = stronger binding
Target: Hepatocyte nuclear factor 3-alpha (Foxa1, Mus musculus, UniProt P35582, residues 1-468, full length assumed)
Chain of UniProt P35582 (whole entry, looked up): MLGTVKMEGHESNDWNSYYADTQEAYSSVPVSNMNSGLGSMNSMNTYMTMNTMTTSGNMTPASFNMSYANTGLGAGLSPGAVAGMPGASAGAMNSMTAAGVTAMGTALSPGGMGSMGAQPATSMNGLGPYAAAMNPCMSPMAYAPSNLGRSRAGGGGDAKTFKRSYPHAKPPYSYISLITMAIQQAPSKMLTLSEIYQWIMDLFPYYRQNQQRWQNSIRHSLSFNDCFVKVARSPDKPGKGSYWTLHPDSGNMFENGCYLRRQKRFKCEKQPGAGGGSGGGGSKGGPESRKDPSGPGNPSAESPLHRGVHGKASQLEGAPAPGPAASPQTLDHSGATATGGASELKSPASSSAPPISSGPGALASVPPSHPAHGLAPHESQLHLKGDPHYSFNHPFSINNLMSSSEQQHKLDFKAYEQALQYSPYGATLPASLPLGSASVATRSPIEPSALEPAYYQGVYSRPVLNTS
Notes: whole designed probe, mean of two concentrations, ends assumed
Constant ends, left off below: GTGAGCGGTGCCCATTGATGGGGAAC … TTTCACTGGGATCGTGGGGAC
Strand | normalised bound fraction [ratio]
GGACACAGCCAGAGGCCATGAGTGCTCAGGAGTGCCATAAACTGTGATTTTGAGACTGCTGGGTGTGTCATAAGGCCAGGCTAAATAGCTTGTTGTTTGCCTTTTTATATTTGAGGCCTATAAAAAAATAGTGAGAAAATAGCAAGATGCCCAGGAGACAGGTGATCTGATTCAGCCAGGGGGTGGGAGGTGG | 0.0704
ATCTTCCCCCTCTTCCTTGCCCCACCAGCTCACCTTCCCGGGTTATTTGCAGATAGGAAAATAAATAAAGCCGGCATTCGTTAACCCTCTTCTGGCGCAAACTGCTGTTTGCTGCCGACTTTGTTTATACAGGTGGCGACGCCAGGCTCCGGGAGAGCAAAGCACCGTGTCAGGGCCATGATCCGGGGTGGCC | 0.42
ATAAAGCTATTTCTCTGCTATTTGAAAATACAATAGAAGAAACTGAGCCTTTTAGACATTCGTCAGCCTCTTCTAATAAACCTTTGTACTATGTAAACATCAGGAAATTCAAAGCTCGGAGACTTTTCCTATTCTTTTCCTCTAGACCTGACAATCAAACACTTCCCCGCTTCAACACATCTCATTTTCTAGA | 0.447
CATTAGAGTCAAAGTTGTTAAGGGGAGCTAGTCATAGCTACCACGTGGCCAGGCATGTGGAACCAGACACCAGGCACAATGAATCATCATAAAGTAAATAGATGAATAATGCTGACAACCTAGTTCATAGTGACACACTACTTGAGATATATAGAATAACATTATTACCCAGTAAGTATGTGAACATTCCGAT | 0.471
ACACTTCTTCCATTTCCTCAACTCCTAAACATTCATTTATTCATTCTTCATCACACAAAAATCTGAATCTGGCTTCTGCCCCCTACCCTCCTTATTTACTTTCTCAAATAGTATACATTTAGTCATTAAACAAACATACATACATGCATATTTTCAAGATTATCAAGCAATTCCTGTTTCAACTTTTCTTAAA | 0.46
AACATACATATGGTAAAAAATTGAAAAGAAACAAAAGATTATGTAACAGAAATGAATCTGCCACATACTCCAGATCCCACTGTCATTTCTCAGAGTAAACATGAATGGAAGTATACCATACATGTTGTTGTATACTGTGTTTGCTGAAAACAGAAAGTATCCTGGTGCTCTGCCTAATTACAGCTGCACAGTA | 0.236
ATCTTCCCCCTCTTCCTTGCCCCACCAGCTCACCTTCCCGGGTTGTTTACTTTGAGGAAAATAAATAAAGCCGGCATTCGTTAACCCTCTTCTGGCGCAAACTGCCAGAGCAAACAGATGAATCATGGTCCTTTGGCGACGCCAGGCTCCGGGAGAGCAAAGCACCGTGTCAGGGCCATGATCCGGGGTGGCC | 0.412
CTGGCTTAAAGTCCTCACTGAAGTGCCTTTTGTCTCTCCTCTTGGTTGTTTCCAAAAACAGTCTTAAAAAAAAAAATCCTTAAATTTCTTTTCATGTTTACATTATCCCTAACAGAATGTTTGCTAAGTGACCTTGGATATCTCACTTGGTACACATTTAGTTTGGTAGATACAACTTTTGTCCAGACAACCT | 0.395

Sample 4 — technique: DHFR PCA, deep sequencing; medium: yeast; added: (+)-ABA 58 µM; reference: wild-type fitted maximum; direction: higher = stronger binding
Target: ABI1, truncated, D143A, DHFR fusion (Arabidopsis thaliana)
Notes: methotrexate growth selection, single substitutions
Starting sequence: PYL1, truncated, DHFR fusion (Arabidopsis thaliana); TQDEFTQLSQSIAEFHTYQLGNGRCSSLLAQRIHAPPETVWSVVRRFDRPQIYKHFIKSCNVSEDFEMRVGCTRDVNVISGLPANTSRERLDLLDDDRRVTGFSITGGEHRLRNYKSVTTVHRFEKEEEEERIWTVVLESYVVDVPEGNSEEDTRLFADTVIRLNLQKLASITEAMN
Substitution | relative binding score [%]
V78D | 6.27
D153Q | 57.8
V62P | 39
L164T | 91
T86Y | 75.3
R155L | 69.7
I52A | 88.6
T106W | 79.9
R69P | 18.3
E147F | 76.6
R99E | 13.6
Y18C | 62.4
E14T | 76.6
V137E | -12.6
F47T | -8.58
A30H | 90.2
H122G | 17.9
R49Q | 85.6
Q7R | 89.5
V100S | 41.9
N61T | 91.8
W134I | 99.1
L82N | 0.618
L94I | 88.7
V40N | -12.1

Some of these lines once more (sample 2):
Substitution | normalised enrichment score
K2H | 0.261
A3K | 0.774
K6D | 0.159
I4M | 0.276
